Published values from different studies.
Each line is one published result; not all experiments were run side by side. ± gives the spread as reported.
OPRD1: Delta-type opioid receptor (OPRD1, Homo sapiens, UniProt P41143)
Chain of UniProt P41143 (whole entry, unmodified, looked up): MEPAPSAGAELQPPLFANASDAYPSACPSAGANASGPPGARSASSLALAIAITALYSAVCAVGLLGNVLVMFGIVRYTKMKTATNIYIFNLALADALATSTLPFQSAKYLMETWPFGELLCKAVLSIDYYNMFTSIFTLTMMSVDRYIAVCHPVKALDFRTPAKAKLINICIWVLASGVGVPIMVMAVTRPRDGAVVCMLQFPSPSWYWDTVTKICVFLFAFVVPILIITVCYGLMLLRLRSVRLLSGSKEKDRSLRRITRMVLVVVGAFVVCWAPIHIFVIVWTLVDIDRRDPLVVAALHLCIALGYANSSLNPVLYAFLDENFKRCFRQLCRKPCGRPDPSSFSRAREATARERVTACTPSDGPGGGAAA

Structure (SMILES) | target | test | setting | endpoint | result
C[C@@H](Cc1ccsc1)NC(=O)NC[C@H](Cc1ccc(O)cc1)N(C)C | OPRD1 | cell-free assay |  | Ki | 540 nM
Cc1cc(O)cc(C)c1C[C@H](N)C(=O)N[C@H](CCCNC(=N)N)C(=O)N[C@@H](Cc1ccccc1)C(=O)N(C)CC(=O)N(C)Cc1cc(C(F)(F)F)cc(C(F)(F)F)c1 | Delta-type opioid receptor (OPRD1, Homo sapiens, UniProt P41143, G73V) |  |  | Ki | 5.46 ± 0.69 nM
CC12CCC3C(CCC4CC(O)CCC43C)C1CCC2C#N (stereo not drawn) | OPRD1 | antagonist |  | IC50 | 4.25 µM
O=C(O)c1ccc(-c2nc(-c3ccccc3Cl)c3sccn23)cc1 | OPRD1 | binding, 8-point dose-response |  | IC50 | ~5 µM
O=C(Cc1ccc(Cl)c(Cl)c1)N1CCNC2COCC(N3CCCC3)C21 (stereo not drawn) | OPRD1 | ligand displacement, radioligand | cell membranes | Ki | > 10000 nM
CN1CCC23c4c5ccc(O)c4CC2C(O)C=CC3C1C5 (racemic) | OPRD1 | binding, radioligand competition |  | EC50 | 1510 nM
Cc1cc(O)cc(C)c1[C@H](O)CC(=O)N[C@@H]1CSSC[C@H](C(N)=O)NC(=O)[C@H](Cc2ccc([N+](=O)[O-])cc2)NC(=O)CNC1=O | OPRD1 | cell-free assay, radioligand |  | Ki | 26300 nM
CCN(CC)C(=O)c1ccc(C(c2cccc(O)c2)N2CC(C)N(Cc3ccccc3)CC2C)cc1 (stereo not drawn) | Delta-type opioid receptor (OPRD1, Homo sapiens, UniProt P41143, Y308A) |  |  | Ki | 1.09 ± 0.3 nM
Oc1cccc(CCN(CCc2ccccc2)CC2CCCC2)c1 | OPRD1 | β-arrestin recruitment, antagonist |  | IC50 | 3.1 µM

For quick reference, copied from above:
Structure (SMILES) | target | test | setting | endpoint | result
CCN(CC)C(=O)c1ccc(C(c2cccc(O)c2)N2CC(C)N(Cc3ccccc3)CC2C)cc1 (stereo not drawn) | Delta-type opioid receptor (OPRD1, Homo sapiens, UniProt P41143, Y308A) |  |  | Ki | 1.09 ± 0.3 nM
